{"data": "Experimental data pooled from the literature", "note": "Numbered parts are unrelated; each lists some results of a single study.", "UniProt Q8NE63, sequence (whole entry, looked up)": "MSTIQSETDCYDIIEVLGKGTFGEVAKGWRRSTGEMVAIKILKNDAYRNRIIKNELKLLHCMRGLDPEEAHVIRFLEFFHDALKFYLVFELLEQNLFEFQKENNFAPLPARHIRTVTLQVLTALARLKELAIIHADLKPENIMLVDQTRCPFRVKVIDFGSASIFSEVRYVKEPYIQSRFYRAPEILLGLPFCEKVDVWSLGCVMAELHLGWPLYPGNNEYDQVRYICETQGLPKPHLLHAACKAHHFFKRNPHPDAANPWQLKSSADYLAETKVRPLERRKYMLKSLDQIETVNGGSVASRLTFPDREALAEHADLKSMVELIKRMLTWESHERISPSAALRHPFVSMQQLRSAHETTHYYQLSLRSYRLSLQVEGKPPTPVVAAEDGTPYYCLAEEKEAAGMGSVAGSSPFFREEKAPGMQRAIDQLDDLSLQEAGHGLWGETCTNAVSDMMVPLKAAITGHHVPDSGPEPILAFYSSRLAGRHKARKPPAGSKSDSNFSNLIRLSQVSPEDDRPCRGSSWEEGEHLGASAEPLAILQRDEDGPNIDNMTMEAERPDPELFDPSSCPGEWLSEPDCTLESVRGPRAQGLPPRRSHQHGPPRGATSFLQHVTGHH", "UniProt P27361, sequence (whole entry, looked up)": "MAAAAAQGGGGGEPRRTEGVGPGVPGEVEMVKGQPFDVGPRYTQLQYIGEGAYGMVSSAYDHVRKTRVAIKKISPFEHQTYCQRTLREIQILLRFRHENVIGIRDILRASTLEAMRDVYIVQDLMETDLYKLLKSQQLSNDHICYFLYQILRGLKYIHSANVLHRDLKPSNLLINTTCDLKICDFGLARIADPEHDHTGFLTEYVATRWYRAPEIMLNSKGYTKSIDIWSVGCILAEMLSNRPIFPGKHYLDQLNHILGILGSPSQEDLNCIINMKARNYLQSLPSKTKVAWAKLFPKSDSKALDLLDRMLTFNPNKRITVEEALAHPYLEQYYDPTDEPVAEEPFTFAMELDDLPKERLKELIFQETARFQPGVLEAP", "UniProt P06213, sequence (whole entry, looked up)": "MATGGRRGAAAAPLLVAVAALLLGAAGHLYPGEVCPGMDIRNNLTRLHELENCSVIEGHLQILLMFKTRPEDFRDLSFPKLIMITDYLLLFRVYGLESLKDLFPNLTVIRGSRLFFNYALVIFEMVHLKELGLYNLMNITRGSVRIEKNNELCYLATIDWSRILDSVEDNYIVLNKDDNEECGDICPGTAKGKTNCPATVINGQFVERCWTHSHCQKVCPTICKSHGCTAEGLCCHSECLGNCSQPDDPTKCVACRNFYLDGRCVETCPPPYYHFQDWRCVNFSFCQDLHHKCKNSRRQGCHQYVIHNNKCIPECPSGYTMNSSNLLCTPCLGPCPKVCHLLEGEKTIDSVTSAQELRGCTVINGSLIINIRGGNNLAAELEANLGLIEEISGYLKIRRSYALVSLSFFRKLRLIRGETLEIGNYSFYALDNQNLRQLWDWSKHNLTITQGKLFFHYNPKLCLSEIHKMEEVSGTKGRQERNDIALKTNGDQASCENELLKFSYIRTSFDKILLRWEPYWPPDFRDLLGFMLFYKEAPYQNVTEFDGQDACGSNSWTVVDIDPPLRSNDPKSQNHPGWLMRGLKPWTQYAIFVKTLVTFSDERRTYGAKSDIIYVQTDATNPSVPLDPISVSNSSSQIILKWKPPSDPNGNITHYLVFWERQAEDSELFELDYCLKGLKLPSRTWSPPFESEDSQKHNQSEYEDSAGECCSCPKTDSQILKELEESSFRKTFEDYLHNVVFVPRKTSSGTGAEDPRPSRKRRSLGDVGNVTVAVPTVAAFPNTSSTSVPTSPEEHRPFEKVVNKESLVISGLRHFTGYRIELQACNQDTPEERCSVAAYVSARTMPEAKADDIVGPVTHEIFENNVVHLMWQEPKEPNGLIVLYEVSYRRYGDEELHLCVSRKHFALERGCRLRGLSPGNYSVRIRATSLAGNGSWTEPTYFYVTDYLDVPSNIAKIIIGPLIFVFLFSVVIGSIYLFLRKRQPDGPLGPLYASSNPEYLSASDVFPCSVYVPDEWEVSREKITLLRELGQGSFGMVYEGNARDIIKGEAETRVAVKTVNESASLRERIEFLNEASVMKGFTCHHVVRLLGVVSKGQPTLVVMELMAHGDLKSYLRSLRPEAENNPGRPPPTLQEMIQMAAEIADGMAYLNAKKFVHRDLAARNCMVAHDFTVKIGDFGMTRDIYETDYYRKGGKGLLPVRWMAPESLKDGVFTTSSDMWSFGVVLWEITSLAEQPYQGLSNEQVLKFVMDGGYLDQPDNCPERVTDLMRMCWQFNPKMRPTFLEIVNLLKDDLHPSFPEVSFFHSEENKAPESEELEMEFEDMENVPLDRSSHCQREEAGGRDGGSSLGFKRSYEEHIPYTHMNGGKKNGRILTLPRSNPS", "UniProt P11362, sequence (whole entry, looked up)": "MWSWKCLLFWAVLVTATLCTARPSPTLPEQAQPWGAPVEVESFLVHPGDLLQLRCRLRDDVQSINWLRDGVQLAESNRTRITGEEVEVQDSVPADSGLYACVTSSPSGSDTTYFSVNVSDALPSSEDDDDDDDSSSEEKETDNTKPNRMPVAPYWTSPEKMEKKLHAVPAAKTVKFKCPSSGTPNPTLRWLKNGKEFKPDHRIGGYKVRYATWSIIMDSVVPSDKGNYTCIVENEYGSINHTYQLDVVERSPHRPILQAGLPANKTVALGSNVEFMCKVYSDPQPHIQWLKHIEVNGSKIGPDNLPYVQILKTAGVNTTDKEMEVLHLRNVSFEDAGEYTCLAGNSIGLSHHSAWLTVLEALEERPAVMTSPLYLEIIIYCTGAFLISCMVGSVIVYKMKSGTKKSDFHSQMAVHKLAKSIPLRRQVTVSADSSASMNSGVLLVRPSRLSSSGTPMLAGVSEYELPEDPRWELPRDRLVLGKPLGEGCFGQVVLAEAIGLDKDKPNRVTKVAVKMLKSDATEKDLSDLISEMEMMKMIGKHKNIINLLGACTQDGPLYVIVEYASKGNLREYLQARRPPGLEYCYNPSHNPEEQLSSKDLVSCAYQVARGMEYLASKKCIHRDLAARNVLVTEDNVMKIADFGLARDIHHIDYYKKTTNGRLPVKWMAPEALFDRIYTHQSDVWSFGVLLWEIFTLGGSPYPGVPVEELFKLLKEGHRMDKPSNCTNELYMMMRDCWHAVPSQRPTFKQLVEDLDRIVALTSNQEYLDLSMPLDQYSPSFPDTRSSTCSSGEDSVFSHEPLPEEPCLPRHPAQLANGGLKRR", "UniProt Q8IWQ3, sequence (whole entry, looked up)": "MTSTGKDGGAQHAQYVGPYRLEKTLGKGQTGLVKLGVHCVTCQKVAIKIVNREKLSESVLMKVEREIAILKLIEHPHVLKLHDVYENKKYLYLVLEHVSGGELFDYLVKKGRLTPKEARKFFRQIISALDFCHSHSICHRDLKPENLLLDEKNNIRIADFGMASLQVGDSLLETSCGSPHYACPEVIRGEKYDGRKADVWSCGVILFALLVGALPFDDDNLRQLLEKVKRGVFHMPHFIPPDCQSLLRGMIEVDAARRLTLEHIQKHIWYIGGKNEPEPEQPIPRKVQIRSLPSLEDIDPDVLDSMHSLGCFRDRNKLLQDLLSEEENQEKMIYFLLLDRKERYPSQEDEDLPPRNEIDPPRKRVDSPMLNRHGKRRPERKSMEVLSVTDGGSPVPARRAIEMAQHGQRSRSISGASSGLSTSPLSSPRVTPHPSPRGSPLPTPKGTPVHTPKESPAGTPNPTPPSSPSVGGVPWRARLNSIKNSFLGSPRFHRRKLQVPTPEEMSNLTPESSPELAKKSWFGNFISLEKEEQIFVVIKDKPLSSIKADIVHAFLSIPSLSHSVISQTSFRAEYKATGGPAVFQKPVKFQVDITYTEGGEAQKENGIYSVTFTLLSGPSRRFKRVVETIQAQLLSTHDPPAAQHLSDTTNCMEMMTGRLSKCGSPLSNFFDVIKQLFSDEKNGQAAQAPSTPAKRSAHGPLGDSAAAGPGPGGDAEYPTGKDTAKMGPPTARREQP", "UniProt P36896, sequence (whole entry, looked up)": "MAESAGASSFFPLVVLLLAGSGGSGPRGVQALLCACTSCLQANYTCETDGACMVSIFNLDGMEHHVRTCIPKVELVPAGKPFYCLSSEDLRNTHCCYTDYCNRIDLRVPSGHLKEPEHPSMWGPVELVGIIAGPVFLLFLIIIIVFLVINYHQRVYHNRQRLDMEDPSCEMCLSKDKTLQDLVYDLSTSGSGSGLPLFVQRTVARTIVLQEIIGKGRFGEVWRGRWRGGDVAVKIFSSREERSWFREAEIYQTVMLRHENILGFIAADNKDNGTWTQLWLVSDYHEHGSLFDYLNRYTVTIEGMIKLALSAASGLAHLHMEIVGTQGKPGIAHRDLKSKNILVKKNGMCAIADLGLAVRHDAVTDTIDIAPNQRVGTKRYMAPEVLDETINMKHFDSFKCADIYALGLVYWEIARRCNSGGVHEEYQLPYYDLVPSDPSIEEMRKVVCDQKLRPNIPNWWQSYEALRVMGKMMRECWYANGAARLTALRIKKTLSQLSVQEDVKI", "UniProt Q9Y6M4, sequence (whole entry, looked up)": "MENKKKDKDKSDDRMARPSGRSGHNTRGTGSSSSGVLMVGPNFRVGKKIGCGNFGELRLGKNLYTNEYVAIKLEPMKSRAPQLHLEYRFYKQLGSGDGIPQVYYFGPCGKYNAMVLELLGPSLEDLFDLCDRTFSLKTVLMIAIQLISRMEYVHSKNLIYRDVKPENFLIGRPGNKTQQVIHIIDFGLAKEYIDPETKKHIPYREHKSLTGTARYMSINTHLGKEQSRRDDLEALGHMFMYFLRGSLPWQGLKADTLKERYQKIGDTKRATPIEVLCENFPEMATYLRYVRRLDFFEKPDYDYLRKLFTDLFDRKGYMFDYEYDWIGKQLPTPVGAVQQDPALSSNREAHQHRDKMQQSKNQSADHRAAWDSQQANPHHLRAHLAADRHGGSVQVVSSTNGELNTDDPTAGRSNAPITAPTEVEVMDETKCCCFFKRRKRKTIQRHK"}
{"data": "Block 1", "organism": "Sarcocystis neurona", "effect on": "parasite growth", "tested at": "10 µM", "time": "96 h", "notes": "secondary screen"}
{"SMILES": "CS(=O)(=O)c1ccc(C2=C(c3ccccc3)C(=O)OC2)cc1", "inhibition [%]": -4.2}
{"SMILES": "CCN1CCC[C@H]1CNC(=O)c1cc(S(N)(=O)=O)ccc1OC", "inhibition [%]": -5.5}
{"SMILES": "CCCC1O[C@@H]2C[C@H]3[C@@H]4CCC5=CC(=O)C=C[C@]5(C)[C@H]4[C@@H](O)C[C@]3(C)[C@]2(C(=O)CO)O1 (some centres unmarked)", "inhibition [%]": -12.5}
{"SMILES": "CNNCc1ccc(C(=O)NC(C)C)cc1", "inhibition [%]": -15}
{"SMILES": "Cc1ncc([N+](=O)[O-])n1CC(O)CCl (centres unmarked)", "inhibition [%]": -13.1}
{"SMILES": "CCOC(=O)O[C@]1(C(=O)OCCl)CC[C@H]2[C@@H]3CCC4=CC(=O)C=C[C@]4(C)[C@H]3[C@@H](O)C[C@@]21C", "inhibition [%]": -27.2}
{"SMILES": "CC[C@H]1OC(=O)[C@H](C)C(=O)[C@H](C)[C@@H](O[C@@H]2O[C@H](C)C[C@H](N(C)C)[C@H]2O)[C@](C)(OC)C[C@@H](C)C(=O)[C@H](C)[C@H]2N(CCCCn3cnc(-c4cccnc4)c3)C(=O)O[C@]12C", "inhibition [%]": -20.8}
{"SMILES": "Cc1ccc(O)c([C@H](CCN(C(C)C)C(C)C)c2ccccc2)c1", "inhibition [%]": -27.9}
{"SMILES": "CNCC[C@@H](Oc1ccccc1C)c1ccccc1", "inhibition [%]": -35.1}
{"data": "Block 2", "SMILES": "O=C(Nc1ccc(Oc2ccc(F)cc2)cc1)N1CCc2ncccc2[C@H]1c1ccc(F)cc1", "effect on": "cell-free assay", "technique": "competition with immobilised ligand", "tested at": "1 µM"}
{"target": "BRSK2 (Homo sapiens, UniProt Q8IWQ3)", "remaining binding": "95%"}
{"target": "Insulin receptor (INSR, Homo sapiens, UniProt P06213)", "remaining binding": "86%"}
{"target": "COQ8A (Homo sapiens, UniProt Q8NI60)", "remaining binding": "100%"}
{"target": "CAMK2G (Homo sapiens, UniProt Q13555)", "remaining binding": "96%"}
{"target": "TESK1 (Homo sapiens, UniProt Q15569)", "remaining binding": "100%"}
{"target": "HIPK4 (Homo sapiens, UniProt Q8NE63)", "remaining binding": "96%"}
{"data": "Block 3", "Structure (SMILES)": "O=C(Nc1cccc(Nc2nccc(Nc3cccc(C(F)(F)F)c3)n2)c1)C1CC1", "effect on": "enzyme activity", "mode": "inhibitor", "tested at": "0.5 µM", "reference": "control"}
{"target": "JAK3 (Homo sapiens, UniProt P52333)", "remaining activity [%]": 109}
{"target": "GSK3B (Homo sapiens, UniProt P49841)", "remaining activity [%]": 101}
{"target": "FGFR3 (Homo sapiens, UniProt P22607)", "remaining activity [%]": 95}
{"target": "EPHA3 (Homo sapiens, UniProt P29320)", "remaining activity [%]": 105}
{"target": "MAP3K14 (Homo sapiens, UniProt Q99558)", "remaining activity [%]": 109}
{"target": "MAP3K5 (Homo sapiens, UniProt Q99683)", "remaining activity [%]": 111}
{"target": "TBK1 (Homo sapiens, UniProt Q9UHD2)", "remaining activity [%]": 91}
{"target": "MAPK3 (Homo sapiens, UniProt P27361)", "remaining activity [%]": 98.2}
{"target": "RPS6KA2 (Homo sapiens, UniProt Q15349)", "remaining activity [%]": 101}
{"target": "FGFR1 (Homo sapiens, UniProt P11362)", "remaining activity [%]": 99.6}
{"target": "NEK1 (Homo sapiens, UniProt Q96PY6)", "remaining activity [%]": 82.8}
{"target": "ACVR1B (Homo sapiens, UniProt P36896)", "remaining activity [%]": 110}
{"target": "CSNK1G3 (Homo sapiens, UniProt Q9Y6M4)", "remaining activity [%]": 93.5}
{"data": "Block 4", "host": "human", "medium": "microsomes or S9", "tested at": "2 µM", "time": "0.5 h"}
{"SMILES": "O=C(CC1NCCNC1=O)OCCc1ccccc1 (centres unmarked)", "remaining compound [%]": 69.7}
{"SMILES": "COc1ccc2ccccc2c1CNCc1ccc(F)cc1", "remaining compound [%]": 13.6}
{"SMILES": "COc1ccc(C#Cc2nc3ccc(C)cc3o2)cc1", "remaining compound [%]": 53.6}
{"SMILES": "O=C(COc1ccc2c3ccccc3n(C(=O)c3cccnc3)c2c1)N1CCCCC1", "remaining compound [%]": 0.388}
{"SMILES": "Cc1ccc(S(=O)(=O)n2c(N)nc3ccccc32)cc1", "remaining compound [%]": 57.6}
{"SMILES": "CCOC(=O)c1[nH]c(C)c(C(=O)CN(CC(C)C)S(=O)(=O)c2ccc(F)cc2)c1C", "remaining compound [%]": 0}
{"SMILES": "CNc1nc(NC2CCOC2c2ccc(F)c(F)c2)ncc1Br (centres unmarked)", "remaining compound [%]": 26}
{"note": "Excerpt of the above (block 3):"}
{"target": "GSK3B (Homo sapiens, UniProt P49841)", "remaining activity [%]": 101}
{"target": "FGFR3 (Homo sapiens, UniProt P22607)", "remaining activity [%]": 95}
{"target": "EPHA3 (Homo sapiens, UniProt P29320)", "remaining activity [%]": 105}
{"target": "MAP3K14 (Homo sapiens, UniProt Q99558)", "remaining activity [%]": 109}
{"target": "MAP3K5 (Homo sapiens, UniProt Q99683)", "remaining activity [%]": 111}
